Results collected from several papers.
Parts stem from different laboratories: compare values within a part only.

Block 1
Target: Centromere-binding protein 1, full length, N-terminal tag (CBF1, Saccharomyces cerevisiae, UniProt P17106, residues 1-351)
Chain of UniProt P17106 (whole entry, looked up): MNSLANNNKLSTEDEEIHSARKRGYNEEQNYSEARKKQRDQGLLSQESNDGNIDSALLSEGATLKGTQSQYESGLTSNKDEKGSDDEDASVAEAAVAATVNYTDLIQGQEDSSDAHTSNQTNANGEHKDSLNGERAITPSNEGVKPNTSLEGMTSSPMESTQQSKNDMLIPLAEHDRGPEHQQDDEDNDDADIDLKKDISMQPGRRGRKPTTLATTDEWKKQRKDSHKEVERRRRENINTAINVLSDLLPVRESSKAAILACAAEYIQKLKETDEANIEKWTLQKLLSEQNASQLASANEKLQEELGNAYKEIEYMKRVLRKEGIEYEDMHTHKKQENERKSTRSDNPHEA
Method: protein-binding microarray
Molecule type: double-stranded DNA, one strand shown
Medium: in vitro
Concentration: 0.8 µM
Notes: whole 60-bp probe, no competitor
Direction: higher = stronger binding
Shared flanks, not repeated: … GTCTTGATTCGCTTGACGCTGCTG
Sequence | fluorescence intensity
CCTAACTACTATATGCACGTGGTATAGCTTCGTACA | 5830 a.u.
CTACCAAATTCCCATCTGATGAACTGTTAGTTGTTC | 507 a.u.
CTATTTAGATGGGTCCATGTGAAAGCTCAAAGGTTC | 555 a.u.
GAATATTCACTTTTGAACGTGACGGTAATTTTGTAG | 1230 a.u.
CTATCGAGAAAAGAAAACGTGAAAAAATAAGCTTTC | 704 a.u.
GAAAATGGTTCAACTCACCCGAATGGAAATAACTAG | 533 a.u.
GAAGGCACGGCTACCCACGCGCACAAAAGTAAATAG | 560 a.u.
GAAGTTTTTAGTCTTCACGTTCATGACCGCGTGTAG | 755 a.u.

Block 2
Target: Transcriptional repressor CTCF (CTCF, Homo sapiens, UniProt P49711, residues 1-727, full length assumed)
Method: protein-binding microarray
Molecule type: double-stranded DNA, one strand shown
Medium: in vitro
Concentration: not given
Notes: k-mer, scored over probes, only values ≥0.25
Direction: higher = stronger binding
Target sequence (chain): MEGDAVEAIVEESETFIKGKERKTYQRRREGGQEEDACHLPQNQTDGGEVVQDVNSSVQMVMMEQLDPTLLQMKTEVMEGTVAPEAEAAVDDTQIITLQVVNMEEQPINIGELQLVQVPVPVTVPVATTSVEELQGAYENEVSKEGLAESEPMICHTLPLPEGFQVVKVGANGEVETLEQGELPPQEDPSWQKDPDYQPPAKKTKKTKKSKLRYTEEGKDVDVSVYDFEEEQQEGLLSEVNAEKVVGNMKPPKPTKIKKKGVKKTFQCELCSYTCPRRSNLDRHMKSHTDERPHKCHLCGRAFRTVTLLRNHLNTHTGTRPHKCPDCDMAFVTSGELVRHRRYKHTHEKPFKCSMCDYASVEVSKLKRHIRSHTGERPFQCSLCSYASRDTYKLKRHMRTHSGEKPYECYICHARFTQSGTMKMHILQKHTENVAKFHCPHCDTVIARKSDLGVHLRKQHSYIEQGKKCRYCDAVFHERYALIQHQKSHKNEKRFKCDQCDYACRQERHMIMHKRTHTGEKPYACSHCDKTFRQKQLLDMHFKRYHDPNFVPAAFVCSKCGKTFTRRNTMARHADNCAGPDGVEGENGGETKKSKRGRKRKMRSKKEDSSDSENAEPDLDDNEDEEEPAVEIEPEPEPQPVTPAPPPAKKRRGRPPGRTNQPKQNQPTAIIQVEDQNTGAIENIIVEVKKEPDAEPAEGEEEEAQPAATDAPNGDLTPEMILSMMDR
Sequence | E-score
ACCATTAA | 0.331
ACATTACA | 0.317
GGAAATTA | 0.272
CAATTACG | 0.272
TATATGAA | 0.298
CGCCACCC | 0.28
CAATGCGC | 0.412
ACACAACA | 0.255

Block 3
Target: Krueppel-like factor 3, full length (KLF3, Homo sapiens, UniProt P57682, residues 1-345)
Chain of UniProt P57682 (whole entry, looked up): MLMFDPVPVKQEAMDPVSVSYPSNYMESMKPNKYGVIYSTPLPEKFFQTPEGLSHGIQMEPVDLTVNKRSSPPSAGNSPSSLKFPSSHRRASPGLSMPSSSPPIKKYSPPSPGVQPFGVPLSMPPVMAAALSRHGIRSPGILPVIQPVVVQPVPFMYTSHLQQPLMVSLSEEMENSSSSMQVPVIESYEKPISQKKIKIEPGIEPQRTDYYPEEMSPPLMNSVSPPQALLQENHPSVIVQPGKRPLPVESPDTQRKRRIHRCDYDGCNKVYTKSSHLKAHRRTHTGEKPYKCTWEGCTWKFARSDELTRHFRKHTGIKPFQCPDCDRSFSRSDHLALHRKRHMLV
Method: protein-binding microarray
Molecule type: hairpin DNA
Medium: in vitro
Concentration: not given
Notes: whole hairpin DNA, median over replicate spots
Reference: not given
Direction: higher = stronger binding
Sequence | median fluorescence
GAGGCCGACCGCCGCCAGCCTCCTGGCTGGCGGCGGTCGGCCTCACACTC | 8410 a.u.
GAGGCCGACCGCGCCGAGCCTCCTGGCTCGGCGCGGTCGGCCTCACACTC (5mC at 15 29) | 8380 a.u.
GAGGCCGACGACGCCCAGCCTCCTGGCTGGGCGTCGTCGGCCTCACACTC (5mC at 9) | 8570 a.u.
GAGGCCTACCGCGCCCAGCCTCCTGGCTGGGCGCGGTAGGCCTCACACTC | 8550 a.u.
GAGGCCGACCACGACCAGCCTCCTGGCTGGTCGTGGTCGGCCTCACACTC | 8800 a.u.
GAGGCCGACCGCGTCCAGCCTCCTGGCTGGACGCGGTCGGCCTCACACTC | 8400 a.u.
GAGGCCGACCACGCCTAGCCTCCTGGCTAGGCGTGGTCGGCCTCACACTC | 9130 a.u.
GAGGCCCGCCGCGCCCAGCCTCCTGGCTGGGCGCGGCGGGCCTCACACTC (5mC at 37) | 8670 a.u.

Further values, each from its own experiment
SMILES | organism | assay | conditions | quantity | result
C=C(CC)C(=O)c1ccc(OCC(=O)O)c(Cl)c1Cl | Sarcocystis neurona | parasite growth | 10 µM, 96 h, first screen | inhibition | -16.6%

Excerpt of the above (block 1):
Sequence | fluorescence intensity
CTACCAAATTCCCATCTGATGAACTGTTAGTTGTTC | 507 a.u.
GAAGTTTTTAGTCTTCACGTTCATGACCGCGTGTAG | 755 a.u.
CTATTTAGATGGGTCCATGTGAAAGCTCAAAGGTTC | 555 a.u.
